Results collected from several papers.
Every numbered part comes from another study and shows a few of its results, in no order.

Study 1
Target: RNA binding protein fox-1 homolog 2, RRM domain, GST-SBP tag (RBFOX2, Homo sapiens, UniProt O43251-10, residues 100-194)
Method: RNA Bind-n-Seq
Form: RNA
Medium: in vitro
Concentration: 365 nM
Notes: natural RNA segment, single round, ends assumed
Relative to: no-protein control
Reading: higher = stronger binding
Shared flanks, not repeated: GGGAGUUCUACAGUCCGACGAUC … UGGAAUUCUCGGGUGCCAA
Residues (chain): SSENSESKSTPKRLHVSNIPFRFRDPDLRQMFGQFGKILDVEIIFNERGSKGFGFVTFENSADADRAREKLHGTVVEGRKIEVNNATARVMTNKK
Sequence	RBNS enrichment (R)
UUUAGGAAUAAAUGUCAGAUUUUAAAAGUCUUCUAUUUCCCAAUGAUCUCUGAAGUUUAGUAUUUUUGCACUAUGACAAUUGCUAAGACUGGGAUUUUAAGCUAGGAUAU	0.413
UGGGGCUCAGGCCAGUGGGUGUGGGAUGGGCCAUCUGCAGGAUAGACCUGGCAAGUCCCCUCUGAUACCCCCAAGCCAGCCAGCCGGGUCCCCCAGGGGUCAGGACAGAA	0.44
AGAGGCUCAAGUGCCCUUGCCGAGUGUCCCCACUGCUCUUGGGGAGGCCCCGGCACAGCCCUGCAGAGAUGCAAGUAAGAGAGUGCCCAGUGCCCUCGGCAGAUGGGUGG	0.334
AAGUCAAAGUAGAAACCCUCCAGUGUUUGGUGUUGUGUAGAGAAUAGGACAUAGGGUAAAGAGGCCAAGCUGCCUGUAGUUAGUAGAGAAGAAUGGAUGUGGUUCUUCUU	1.84
UGUGGUAUUUUAAUGUGGUAAACAUGUGAAUGAAGGCCUGUGGCUCAGUUAAUCACUCCCACAACUUUGAGCUGUGAGUUUUACUGGUGGAAGGAACUUUAACAGGUCUU	0.45
GCCAAUUGUAAUUCUUUUGCCCUAAGGACUAGGGACUCCUAAGUUGAGGGUUGUGAUCAGAGGUCCCAUCUCUUUACAGUGUCACUUCAAUCUGUUUGUGUUUCUGAGCC	0.456
GCUUGGCCAUUUAUCUAAGGAAGAUGAGCCAAAAUUAUGACAUCUAAAAUAAUCGUCAGUCUUAAGAGUAAAGACAGCGAAACUGCACACUUAUAAGUUCUUUUCAGCUU	0.301
UAACUUCUGUUACUCCUUUGGCCCAUAGCUAAGGUCAUCCUUCCCCACAGGGGUGGCUUUGGGAUUGGAUGAUACAGCUUUUGCUUCUGUGUAGUAUACCUGUACAUACU	0.698
CUGCCUGAGCCCCGUGGCCUCUCAGCUCUGCGGCCACCCCGUUCCCUCCCCAGCUUCCUGCCCAAAGAGCCCCACAUUCAAGCCAACUUGAGGGAAGGGGGCGUCUCGUC	0.466

Study 2
Target: PABPC1L2, full length, GST fusion (mouse, UniProt A0ABA7IW68)
Method: RNAcompete
Form: RNA
Medium: in vitro
Concentration: 20 nM
Notes: 7-mer, probes averaged, single round
Relative to: mean of 7-mers
Reading: higher = stronger binding
Construct (chain): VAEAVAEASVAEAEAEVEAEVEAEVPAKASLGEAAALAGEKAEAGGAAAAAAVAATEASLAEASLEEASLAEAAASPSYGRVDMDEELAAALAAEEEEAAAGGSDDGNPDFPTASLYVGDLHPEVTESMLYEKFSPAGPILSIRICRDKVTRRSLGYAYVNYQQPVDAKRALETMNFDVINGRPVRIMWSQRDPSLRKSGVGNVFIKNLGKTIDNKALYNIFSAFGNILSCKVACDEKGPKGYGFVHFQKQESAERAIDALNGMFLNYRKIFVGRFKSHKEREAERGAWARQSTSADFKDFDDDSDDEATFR
Sequence	7-mer Z-score
AUCAGGC	0.0714
UGGGAAC	0.166
CCUCGCC	-0.427
GUGGACC	0.148
AUUGUAU	-0.104
AUUUUCA	-0.391
GCAAUUA	-0.0518
ACCGCCG	-0.282
GCAUGCA	-0.168
UACUAGU	-0.197
CUGUCAA	-0.251
AGGUCGC	-0.304

Study 3
Target: Sal-like protein 4, full length isoform B (SALL4, Homo sapiens, UniProt Q9UJQ4-2, residues 1-616)
Method: universal PBM
Form: double-stranded DNA, one strand shown
Medium: in vitro
Concentration: not given
Notes: 8-mer, flanks averaged, mean of replicates
Reading: higher = stronger binding
Construct (chain): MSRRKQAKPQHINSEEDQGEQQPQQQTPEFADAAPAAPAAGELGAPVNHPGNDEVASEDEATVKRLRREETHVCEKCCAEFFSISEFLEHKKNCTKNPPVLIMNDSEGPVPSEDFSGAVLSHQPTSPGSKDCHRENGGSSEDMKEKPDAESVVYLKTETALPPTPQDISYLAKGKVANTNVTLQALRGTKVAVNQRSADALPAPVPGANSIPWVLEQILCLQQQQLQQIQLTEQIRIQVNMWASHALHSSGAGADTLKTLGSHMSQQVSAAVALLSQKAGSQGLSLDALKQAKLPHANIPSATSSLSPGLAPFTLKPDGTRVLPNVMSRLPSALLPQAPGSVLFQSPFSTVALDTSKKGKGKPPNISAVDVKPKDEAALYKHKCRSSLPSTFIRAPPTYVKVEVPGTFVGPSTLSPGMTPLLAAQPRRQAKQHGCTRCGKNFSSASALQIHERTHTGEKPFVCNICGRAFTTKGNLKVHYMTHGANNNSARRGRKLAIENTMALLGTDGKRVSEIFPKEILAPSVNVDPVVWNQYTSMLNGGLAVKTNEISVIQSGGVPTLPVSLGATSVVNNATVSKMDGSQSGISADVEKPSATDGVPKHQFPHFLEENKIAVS
Sequence	E-score
CCTATTGA	0.236
GCCGAACC	-0.191
CGGGGTGA	-0.163
ACGGCAGT	-0.167
CTATCAAC	0.0522
AGAACGCA	-0.00317
CTGAATTA	0.212

Mixed results
Molecule	target	assay	test system	setting	scale	endpoint	value
PhoQ, residues 284 288 289 292 302 303 ASASEQ	PhoP, residues 12 14 15 18 19 TQCLL (Escherichia coli, UniProt P23836)	Sort-seq, measured: YFP reporter	E. coli	PhoQ-PhoP variant library, with: 10 µM Mg2+	relative to: high Mg2+ state, higher = stronger signaling	fold induction	4.24

Excerpt of the above (study 1):
Sequence	RBNS enrichment (R)
AGAGGCUCAAGUGCCCUUGCCGAGUGUCCCCACUGCUCUUGGGGAGGCCCCGGCACAGCCCUGCAGAGAUGCAAGUAAGAGAGUGCCCAGUGCCCUCGGCAGAUGGGUGG	0.334
CUGCCUGAGCCCCGUGGCCUCUCAGCUCUGCGGCCACCCCGUUCCCUCCCCAGCUUCCUGCCCAAAGAGCCCCACAUUCAAGCCAACUUGAGGGAAGGGGGCGUCUCGUC	0.466
